Assay results from different studies.
Each numbered part is a random draw from the data of one study; scales do not carry over between parts. Substitutions count along the parent as printed.

Block 1
Target: RNA binding protein fox-1 homolog 2, RRM domain, GST-SBP tag (RBFOX2, Homo sapiens, UniProt O43251-10, residues 100-194)
Method: RNA Bind-n-Seq
Molecule type: RNA
Medium: in vitro
Tested at: 365 nM
Setting: natural RNA segment, single round, ends assumed
Baseline: no-protein control
Direction: higher = stronger binding
Quantity: RBNS enrichment (R)
All sequences stand within: GGGAGUUCUACAGUCCGACGAUC … UGGAAUUCUCGGGUGCCAA
Residues (chain): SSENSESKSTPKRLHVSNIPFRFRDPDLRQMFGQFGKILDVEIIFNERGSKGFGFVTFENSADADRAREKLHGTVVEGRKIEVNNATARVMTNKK
UAGUCCAGCCCUCUCGCAAUGGCUUGUGACUCACAGGAUUGCACCAUCCCCACUGCUAACUUGGGGCUGGGGCCUCCCUUUCACAGAUACCUUGGGUUUGUGCAUGUUUU: 4.85
AUAACCAAGAACCUUCAGGAUGCUUGUAACCAAGUACUUUCAGGAUGCUUUUUGUAUGUAUAUCACAUAGAGUAGGUUGGUUUCCUGAGUAAUUGGGAUUCCAACUAGAU: 0.294
GGCAACCCAGAAAAAGUGCUCCCCACAUCCUUCUGAGACUUGGCCUGUGUGUGUGGACGAGAAGCCAUUCACCGUAAGGGUGCAGAAAGCUCGACCAAGCCGAAUUGCAA: 0.639
AAACAUGACCCUGGGCUUCUGUACCACACUAGAAUUCAUGUGAGAAAGCUAAAAUGGUGGUCUUCUCCACCAGCCCCUCACAGGCUUGGGGGUUUUCAAUGUGAAACACA: 0.241
CGUGUCCUGCCACUAUGCCUGUAUUGCUGAGUGCCACCCAAGUCCUCUAUUUGGCUGUAGUCUGCUCUGGGGCUUUCACUGUCAGUCUGGGGCAUGGGCUGAGCAAGUAU: 0.642
UGAUUCUGUUCUCGCUUUUAAAGGAUGCUGAGAUGGUGAUGUUACUCUCCAUUUUUGGUACCAGUUCUGAGACUGUAAGACUUUUCAUCUGGGACUUUAGCACACACUGA: 0.419
GUCCAUCAGCGCUGACCUUCCGGGGGCCCAGAGCUUCCCAGCCCUGAGUCAAGCUGGCCAUGAACGCGUACACUUCAGUUCAGCAGGAUGGGCUGGAGAGCCUCUCUGUG: 0.275
CAAGACAGCAGGUGCCACGGCCCGCCCCGCCUGCCAGCCCGAAUUCCCGUUCUCCUGUGUCUACUAACAAGGACAUGGGGGUGGGCGGUGACCUCCGCAUCCCUCAGAGC: 0.539
GGUCUAUUUCCUGUUGCCGCUCUGCAGCCUGGACCUGUGGACCCUGGUUGUAAAGAGUAAAACUGUAUCUUAGGAAACCAGUGUCACCUUUUUCACCUUUUAAUUUUAUA: 0.364
UCGCACAUCUCUCCUGUCUGUUAGUAGUAAGAAUACAGGGAAAUGUCUUCAGCCCCACGUAGAUGCUGCUUAAGAUGAGCGUUUCAAUUGCAUCAUCACUGACCUGUUAG: 0.651
GUUACUGCUAGAUUCCAAUUCAACUGCCUUGUAGCCUGGGAAGCCCAGCAAGUCAUAACCUCCUGUCUUCUAGGAACCCGUGGGCUUUUACUGUGCAUGUCUCUGUACAA: 1.82
UCAAGACAGCUCCAGUAUCAUGCAGCUUUUUAUGUUUGCACUCAAAAAGCCAGUGCCUUCUGGCUGGUGCCGAGGCUUGGGUGAAAUGUUAAAUAUGCACUGACCUCAGA: 0.533

Block 2
Target: Cyclic AMP-responsive element-binding protein 1 (CREB1, Homo sapiens, UniProt P16220, residues 1-327, full length assumed)
UniProt P16220, sequence (whole entry, looked up): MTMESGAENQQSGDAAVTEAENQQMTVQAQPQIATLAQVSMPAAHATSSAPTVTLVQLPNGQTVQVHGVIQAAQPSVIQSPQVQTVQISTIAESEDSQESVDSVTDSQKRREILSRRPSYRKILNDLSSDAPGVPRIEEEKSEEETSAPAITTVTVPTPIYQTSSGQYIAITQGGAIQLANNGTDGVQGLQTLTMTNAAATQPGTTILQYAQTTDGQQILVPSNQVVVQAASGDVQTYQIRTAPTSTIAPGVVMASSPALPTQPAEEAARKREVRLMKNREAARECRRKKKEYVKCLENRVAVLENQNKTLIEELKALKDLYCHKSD
Method: protein-binding microarray
Molecule type: double-stranded DNA, one strand shown
Medium: in vitro
Tested at: not given
Setting: k-mer, scored over probes, only values ≥0.25
Direction: higher = stronger binding
Quantity: E-score
AACGTAT: 0.29
CGACGTA: 0.346
ACTGTTA: 0.258
TAACAGA: 0.285
ACATACA: 0.291
CTCTGAC: 0.287
ATATTCA: 0.253
TAGTACA: 0.252
GCGTCAA: 0.267
ACGTGAC: 0.331
TATGACA: 0.304
AACGTGA: 0.275
ACGCAAT: 0.273
CTTTTTA: 0.266
CACAATA: 0.257
TACACAA: 0.268

Block 3
Target: ABI1, truncated, D143A, DHFR fusion (Arabidopsis thaliana)
Method: DHFR PCA, deep sequencing
Medium: yeast
Setting: methotrexate growth selection, single substitutions
Added: (+)-ABA 2500 µM
Baseline: wild-type fitted maximum
Direction: higher = stronger binding
Quantity: relative binding score
Starting sequence: PYL1, truncated, DHFR fusion (Arabidopsis thaliana); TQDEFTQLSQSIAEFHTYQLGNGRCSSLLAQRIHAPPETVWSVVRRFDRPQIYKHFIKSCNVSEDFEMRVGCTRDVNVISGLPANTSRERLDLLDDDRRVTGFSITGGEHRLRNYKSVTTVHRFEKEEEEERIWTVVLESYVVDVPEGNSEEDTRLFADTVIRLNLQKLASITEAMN
E125N: 107%
L169T: 45%
G102N: 39.6%
P83F: 41.8%
A175W: 90.5%
W134D: 106%
L166N: 66.6%
S63G: 97.1%
F5H: 102%
S63Y: 90.5%
V43L: 101%
L8C: 97.6%
S171P: 56.2%
G81C: 82%
E89P: 6.23%
V40G: -7.59%
E131K: 105%
G102Y: -2.15%
E38R: 91.9%
D97A: 101%
E151W: 93.8%
E151F: 93.1%
P50A: 72.3%
P36I: 90.2%

Block 4
Target: TEF, bZIP domain (human)
Method: DHFR protein complementation
Medium: yeast
Setting: single substitutions, most at no-binding floor
Baseline: wild-type JUN-FOS pair
Direction: higher = stronger binding
Quantity: binding fitness
Starting sequence: JUN, bZIP domain (human); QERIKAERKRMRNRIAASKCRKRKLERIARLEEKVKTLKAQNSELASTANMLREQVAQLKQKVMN; partner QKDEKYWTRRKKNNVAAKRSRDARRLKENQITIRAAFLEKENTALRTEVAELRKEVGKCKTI
R30W: -1.44 natural log
E32L: -1.3 natural log
N42V: -1.42 natural log
T37K: -1.46 natural log
A46Y: -1.41 natural log
L52P: -1.48 natural log
R53N: -1.51 natural log
T37V: -1.29 natural log
T37D: -1.37 natural log
A29C: -1.53 natural log
N42D: -1.57 natural log
S43V: -1.4 natural log
K34S: -1.22 natural log
L38C: -1.47 natural log
T48F: -1.15 natural log
E54T: -1.26 natural log
S47Q: -1.55 natural log
K39T: -1.5 natural log
I28T: -1.5 natural log
L59P: -1.48 natural log
S47T: -1.48 natural log
E32G: -1.52 natural log
E54L: -1.48 natural log
R30K: -1.51 natural log
I28R: -1.39 natural log

Block 5
Target: Histone acetyltransferase KAT6A, both winged helices, GST fusion (KAT6A, Homo sapiens, UniProt Q92794, residues 1-181)
Method: protein binding microarray
Molecule type: double-stranded DNA, one strand shown
Medium: in vitro
Tested at: not given
Setting: 8-mer, flanks averaged, mean of 2 arrays, mostly near background
Baseline: not given
Direction: higher = stronger binding
Quantity: E-score
Residues (chain): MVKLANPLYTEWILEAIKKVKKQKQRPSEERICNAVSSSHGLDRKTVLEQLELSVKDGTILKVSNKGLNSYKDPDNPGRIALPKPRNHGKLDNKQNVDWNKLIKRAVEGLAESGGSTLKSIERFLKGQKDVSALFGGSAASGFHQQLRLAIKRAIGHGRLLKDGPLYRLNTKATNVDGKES
CCATATAA: -0.136
AATGACCC: -0.0256
GACTCCTC: -0.105
GCTTAGCA: 0.0419
CATCAGGA: -0.0847
GCCGGATA: 0.172
GGTCTACA: 0.049
CTAGCATA: -0.0666
AAACGATA: -0.148
AAGTCGAT: -0.0716
CTGGTCCC: -0.145
ATCGTCGA: -0.0741
GGAGGTGA: -0.115
ACCCTCAA: -0.219
AATGCGTA: 0.26
CTATGCAA: -0.085
CAATAAGC: 0.0304
CGATTAGC: 0.0631
GAAAAGGA: -0.195
GAGGCCAC: -0.153
AGGGACCG: -0.0224
TAACAGCA: -0.0245
CGAACCCC: -0.0614
GTCTATTA: -0.0785
GATTTCAA: 0.0459

Block 6
Target: CCND3, cyclin fold, Cln2 fusion (human)
Method: yeast growth competition, sequencing
Medium: yeast
Setting: weak parent motif
Baseline: not given
Direction: higher = stronger binding
Quantity: normalised enrichment score
Starting sequence: DBF4B docking peptide (human); LGYLYLLLTQSLW
LGYLYLLLAQSLW [T9A]: 0.0246
LGYLYALLTQSLW [L6A]: 0.397
LGYLYLLLTQSLA [W13A]: -0.377
LGYLYLLATQSLW [L8A]: 0.275
LGALYLLLTQSLW [Y3A]: -0.306
LGYLYLLLTQALW [S11A]: 0.0868
AGYLYLLLTQSLW [L1A]: 0.42

Repeated from above (block 1):
UAGUCCAGCCCUCUCGCAAUGGCUUGUGACUCACAGGAUUGCACCAUCCCCACUGCUAACUUGGGGCUGGGGCCUCCCUUUCACAGAUACCUUGGGUUUGUGCAUGUUUU: 4.85
AUAACCAAGAACCUUCAGGAUGCUUGUAACCAAGUACUUUCAGGAUGCUUUUUGUAUGUAUAUCACAUAGAGUAGGUUGGUUUCCUGAGUAAUUGGGAUUCCAACUAGAU: 0.294
GGCAACCCAGAAAAAGUGCUCCCCACAUCCUUCUGAGACUUGGCCUGUGUGUGUGGACGAGAAGCCAUUCACCGUAAGGGUGCAGAAAGCUCGACCAAGCCGAAUUGCAA: 0.639
AAACAUGACCCUGGGCUUCUGUACCACACUAGAAUUCAUGUGAGAAAGCUAAAAUGGUGGUCUUCUCCACCAGCCCCUCACAGGCUUGGGGGUUUUCAAUGUGAAACACA: 0.241
CGUGUCCUGCCACUAUGCCUGUAUUGCUGAGUGCCACCCAAGUCCUCUAUUUGGCUGUAGUCUGCUCUGGGGCUUUCACUGUCAGUCUGGGGCAUGGGCUGAGCAAGUAU: 0.642
UGAUUCUGUUCUCGCUUUUAAAGGAUGCUGAGAUGGUGAUGUUACUCUCCAUUUUUGGUACCAGUUCUGAGACUGUAAGACUUUUCAUCUGGGACUUUAGCACACACUGA: 0.419
GUCCAUCAGCGCUGACCUUCCGGGGGCCCAGAGCUUCCCAGCCCUGAGUCAAGCUGGCCAUGAACGCGUACACUUCAGUUCAGCAGGAUGGGCUGGAGAGCCUCUCUGUG: 0.275
CAAGACAGCAGGUGCCACGGCCCGCCCCGCCUGCCAGCCCGAAUUCCCGUUCUCCUGUGUCUACUAACAAGGACAUGGGGGUGGGCGGUGACCUCCGCAUCCCUCAGAGC: 0.539
GGUCUAUUUCCUGUUGCCGCUCUGCAGCCUGGACCUGUGGACCCUGGUUGUAAAGAGUAAAACUGUAUCUUAGGAAACCAGUGUCACCUUUUUCACCUUUUAAUUUUAUA: 0.364
UCGCACAUCUCUCCUGUCUGUUAGUAGUAAGAAUACAGGGAAAUGUCUUCAGCCCCACGUAGAUGCUGCUUAAGAUGAGCGUUUCAAUUGCAUCAUCACUGACCUGUUAG: 0.651
GUUACUGCUAGAUUCCAAUUCAACUGCCUUGUAGCCUGGGAAGCCCAGCAAGUCAUAACCUCCUGUCUUCUAGGAACCCGUGGGCUUUUACUGUGCAUGUCUCUGUACAA: 1.82
UCAAGACAGCUCCAGUAUCAUGCAGCUUUUUAUGUUUGCACUCAAAAAGCCAGUGCCUUCUGGCUGGUGCCGAGGCUUGGGUGAAAUGUUAAAUAUGCACUGACCUCAGA: 0.533
